Experimental data from different studies.
Numbered parts are unrelated; each lists some results of a single study.

Block 1
Target: RING finger protein unkempt homolog, zinc fingers 1-6, GST-SBP tag (UNK, Homo sapiens, UniProt Q9C0B0, residues 30-357)
Method: RNA Bind-n-Seq
Molecule type: RNA
Sample: in vitro
Tested at: not given
Setting: RNA with constant flanks, ends assumed
Baseline: input RNA pool
Direction: higher = stronger binding
Shared flanks, not repeated: GGGAGUUCUACAGUCCGACGAUC … CAACAGAGGAUUGAGCAUCA
Residues (chain): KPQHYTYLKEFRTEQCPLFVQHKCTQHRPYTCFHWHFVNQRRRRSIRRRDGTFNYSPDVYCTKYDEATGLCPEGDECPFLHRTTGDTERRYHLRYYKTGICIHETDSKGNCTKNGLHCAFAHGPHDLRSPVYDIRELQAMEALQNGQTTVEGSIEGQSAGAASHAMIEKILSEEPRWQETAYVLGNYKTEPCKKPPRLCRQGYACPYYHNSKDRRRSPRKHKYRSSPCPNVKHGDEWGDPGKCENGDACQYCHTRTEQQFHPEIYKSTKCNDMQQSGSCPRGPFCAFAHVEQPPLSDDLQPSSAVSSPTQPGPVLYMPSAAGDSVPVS
Oligonucleotide | bound/input enrichment
GGCAUGGUGUCAGAGCCCCUGGAGGACUUGGACCCCUACUAUGCAGACAAAAAGACUUUCACCGUAUUGAACAAAGGGAAAACAAUCUUCCGUUUCAAUGCCACACCUGCUUUAUAUAUG | 0.0645 ratio
CAGGGCAGCACCACCCCCUCCUCCUUCUUUCCACACCUGCAAACCCUUUUGCCUGGGCUGCACCGUCCGUGUUAAUUACAUCGCAGCUUUGAGGGCUCCUGUGGCAAAUACCCGGAUUAA | 0.288 ratio
AAGGAACUCCAGGUUGAACUGUCUGGCUGAAGCAAGGGAGGGUCUGGCACGCCCCACCAACCGUAAAUCCCCCUGCCUAUAUUAUAAUGGAUCAUGCGAUAUCAGGAUGGGGAAUGUAUG | 0.277 ratio
UGGUAUCUCUUCUUAGUGUUCUAUUUAUCUUAUUUGCUAAUGGGAGCACUUCUUCCUUUGUCCGGCUGUGCUUUACUGAUAAAACCAAGUAUUGAAUAAAGAGAGUUAAUUAUCUUUUUA | 0.558 ratio
AAUUUCCUGUCAUACUUUUUAGACAUUCACAUCAGACUUACAGAGCACCUGGCCACAUUCCCGGUUUGUGUUAUUUCUCAGCUAUGGAUAUGAUCAAAUGAGAACACUGCUUAACUAAUG | 0.284 ratio
UGUUUAUCCUGGCCUGCUCAGGUUUCAUUCUUACAGAACCCAGGACUCCUUGCCCAGGAACCGUACCACCCACAAUGAGCUGGGUCCUUCCUGCCAAUCACUUAUUAAGAACAUGCCUUA | 0.147 ratio
AACCACCUCAUCCAAAAUAUCCCGGGCUUCUGGGGGCAAGCAUUUCAGAACCAUCCCCAGCCCGCAUCCUUUCUGAAUAGCCAAGAGAAAGAGGUACUGAGCUACUUAAACAGCUUGGAA | 0.217 ratio
AGACUAGCCUAUGCUGAAAACAUAGCUCUGCUGGCAGAAACAGCUCUGAGAUUCCUGGAAUCCGUACAGUUAAAAAAUCUUAAUAUGGAAAAUGACCCCAAUAAUGAAGAAAUAGAUGAG | 0.572 ratio

Block 2
Target: Ras GTPase-activating protein-binding protein 1, full length (G3BP1, Homo sapiens, UniProt Q13283)
UniProt Q13283, sequence (whole entry, looked up): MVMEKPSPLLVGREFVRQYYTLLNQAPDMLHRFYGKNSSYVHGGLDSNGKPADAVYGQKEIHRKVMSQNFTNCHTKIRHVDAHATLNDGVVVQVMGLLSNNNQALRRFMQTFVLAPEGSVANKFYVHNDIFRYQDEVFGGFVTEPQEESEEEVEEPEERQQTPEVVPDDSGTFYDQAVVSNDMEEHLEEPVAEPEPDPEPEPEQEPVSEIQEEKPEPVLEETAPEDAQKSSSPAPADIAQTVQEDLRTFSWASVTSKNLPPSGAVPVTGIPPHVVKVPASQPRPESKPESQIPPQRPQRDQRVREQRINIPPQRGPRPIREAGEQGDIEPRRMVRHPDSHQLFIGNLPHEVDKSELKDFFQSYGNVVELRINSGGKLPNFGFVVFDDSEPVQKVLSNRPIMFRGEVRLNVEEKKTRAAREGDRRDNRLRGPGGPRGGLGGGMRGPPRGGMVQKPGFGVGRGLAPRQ
Method: RNA Bind-n-Seq
Molecule type: RNA
Sample: in vitro
Tested at: 200 nM
Setting: whole 134-nt RNA, ends assumed
Added: 150 mM KCl
Baseline: input library
Direction: higher = stronger binding
Shared flanks, not repeated: GGGAGUUCUACAGUCCGACGAUC … UGGAAUUCUCGGGUGUCAAGG
Oligonucleotide | log2 enrichment
UGGCCCUGGUGGCAUGCGGGGAGGAAGAGGUGGCCUCAUGGAUCGUGGUGGUCCCGGUGGAAUGUUCAGAGGUGGCCGUGGGGGAGACAG | 0.359
CCUGUGCUACACAUCGUAUGUACCGAAUCGGAAAAAAGGGGAAAAAAGGGAAAAAAGGGGAAAGUAUUAUGUUACGCCGUUCGGAUCUGC | -0.754
ACCAUGCAGGUGGGCAUCUUUUGGAAGUGGGGCAAGGGGGGGAUAGGGAGGGGGGUAACACUUUGGGAACAGGUGGUCCCAGGUCGUUUC | 1.27
AAGUCCUGUGCUACACAUCGUAUGUACCGAAUCGGGCCCCGGGCCCCGGCCCCGGGAAAGUAUUAUGUUACGCCGUUCGGAUCUGCACUU | -1.18
UGGACCUGGUGGCAUGCGGGGAGGAAGAGGUGGCCUCAUGGAUCGUGGUGGUCCCGGUGGAAUGUUCAGAGGUGGCCGUGGUGGAGACAG | 0.633
UGGGAGGUGGAUUUUGUUUAUUUUUUUAGCUCAUUUCAAGGGGUGGGAAUUUUUUUUUAAUAUGUGUCAUGAAUAAAGUUGUUUUUGAAA | 0.163
CAAGUCCUGUGCUACACAUCGUAUGUACCGAAUCGGGGAAAGGGAAAGGGAAAGGGAAAGUAUUAUGUUACGCCGUUCGGAUCUGCACUU | 0.556
AAGUCCUGUGCUACACAUCGUAUGUACCGAAUCGGGUUUUGGGGUUUUGGUUUUGGGAAAGUAUUAUGUUACGCCGUUCGGAUCUGCACU | -0.82

Block 3
Target: PABPC1L2, full length, GST fusion (mouse, UniProt A0ABA7IW68)
Method: RNAcompete
Molecule type: RNA
Sample: in vitro
Tested at: 20 nM
Setting: 7-mer, probes averaged, single round
Baseline: mean of 7-mers
Direction: higher = stronger binding
Construct (chain): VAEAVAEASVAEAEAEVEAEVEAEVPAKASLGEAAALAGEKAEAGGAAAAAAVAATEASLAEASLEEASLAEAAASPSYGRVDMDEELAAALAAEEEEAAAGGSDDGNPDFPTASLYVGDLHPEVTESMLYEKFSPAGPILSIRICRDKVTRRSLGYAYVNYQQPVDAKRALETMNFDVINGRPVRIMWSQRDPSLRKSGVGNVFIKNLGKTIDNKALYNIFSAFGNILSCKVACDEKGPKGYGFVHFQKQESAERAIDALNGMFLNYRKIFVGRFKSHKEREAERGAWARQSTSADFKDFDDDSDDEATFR
Oligonucleotide | 7-mer Z-score
CACAUUG | -0.0264
AUGUUUU | -0.36
CUCCAUA | -0.112
GCAGUGC | -0.157
AUCAAGU | -0.0609
UAUGGUA | -0.113
CUAAUGC | -0.36
UCCGGUC | -0.284

Single results of other studies
Molecule | target | effect on | molecule type | tested at | quantity | result
TEDDWITYI | HLA class I histocompatibility antigen, A alpha chain, allele A*25:01 (Homo sapiens, UniProt P04439) | peptide-MHC binding | peptide | concentration not given | binding | inactive

A few entries again (block 1):
Oligonucleotide | bound/input enrichment
CAGGGCAGCACCACCCCCUCCUCCUUCUUUCCACACCUGCAAACCCUUUUGCCUGGGCUGCACCGUCCGUGUUAAUUACAUCGCAGCUUUGAGGGCUCCUGUGGCAAAUACCCGGAUUAA | 0.288 ratio
UGGUAUCUCUUCUUAGUGUUCUAUUUAUCUUAUUUGCUAAUGGGAGCACUUCUUCCUUUGUCCGGCUGUGCUUUACUGAUAAAACCAAGUAUUGAAUAAAGAGAGUUAAUUAUCUUUUUA | 0.558 ratio
